Assay results from different studies.
Each line is one published result; not all experiments were run side by side. ± marks the error that the study gave.
HDAC6: Protein deacetylase HDAC6 (HDAC6, Homo sapiens, UniProt Q9UBN7)
UniProt Q9UBN7, sequence (whole entry, looked up): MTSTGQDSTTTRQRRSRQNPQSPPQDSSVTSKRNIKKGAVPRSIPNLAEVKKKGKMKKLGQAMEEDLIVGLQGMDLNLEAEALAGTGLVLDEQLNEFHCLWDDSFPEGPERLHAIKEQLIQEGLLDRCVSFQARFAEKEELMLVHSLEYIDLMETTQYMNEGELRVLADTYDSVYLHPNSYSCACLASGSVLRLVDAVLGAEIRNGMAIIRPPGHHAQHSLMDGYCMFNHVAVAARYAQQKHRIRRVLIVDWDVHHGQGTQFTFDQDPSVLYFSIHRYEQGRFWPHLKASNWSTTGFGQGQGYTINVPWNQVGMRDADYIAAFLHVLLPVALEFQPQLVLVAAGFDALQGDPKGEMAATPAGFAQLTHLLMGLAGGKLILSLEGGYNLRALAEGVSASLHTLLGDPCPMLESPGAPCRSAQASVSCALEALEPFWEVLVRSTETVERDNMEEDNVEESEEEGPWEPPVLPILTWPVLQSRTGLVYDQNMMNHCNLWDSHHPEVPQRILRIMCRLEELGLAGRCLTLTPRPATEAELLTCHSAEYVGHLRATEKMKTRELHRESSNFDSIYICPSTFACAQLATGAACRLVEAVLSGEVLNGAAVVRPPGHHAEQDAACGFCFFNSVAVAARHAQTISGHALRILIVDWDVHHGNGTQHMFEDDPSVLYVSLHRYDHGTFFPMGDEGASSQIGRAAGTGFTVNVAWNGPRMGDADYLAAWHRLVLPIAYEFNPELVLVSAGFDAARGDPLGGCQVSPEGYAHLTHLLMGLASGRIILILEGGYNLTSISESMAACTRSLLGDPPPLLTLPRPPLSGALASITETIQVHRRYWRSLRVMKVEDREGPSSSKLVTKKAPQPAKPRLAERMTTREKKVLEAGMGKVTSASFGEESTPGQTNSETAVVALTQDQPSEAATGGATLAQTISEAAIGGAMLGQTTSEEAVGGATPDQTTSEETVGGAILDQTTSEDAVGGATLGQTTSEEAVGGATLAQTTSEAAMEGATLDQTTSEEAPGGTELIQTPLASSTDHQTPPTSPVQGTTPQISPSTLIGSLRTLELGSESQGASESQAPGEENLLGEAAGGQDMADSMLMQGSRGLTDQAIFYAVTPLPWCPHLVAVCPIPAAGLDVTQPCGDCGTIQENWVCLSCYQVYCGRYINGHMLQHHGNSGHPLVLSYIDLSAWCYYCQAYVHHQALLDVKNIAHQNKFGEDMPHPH
WDR5: WD repeat-containing protein 5 (WDR5, Homo sapiens, UniProt P61964)
CA12: Carbonic anhydrase 12 (CA12, Homo sapiens, UniProt O43570)
UniProt O43570, sequence (whole entry, looked up): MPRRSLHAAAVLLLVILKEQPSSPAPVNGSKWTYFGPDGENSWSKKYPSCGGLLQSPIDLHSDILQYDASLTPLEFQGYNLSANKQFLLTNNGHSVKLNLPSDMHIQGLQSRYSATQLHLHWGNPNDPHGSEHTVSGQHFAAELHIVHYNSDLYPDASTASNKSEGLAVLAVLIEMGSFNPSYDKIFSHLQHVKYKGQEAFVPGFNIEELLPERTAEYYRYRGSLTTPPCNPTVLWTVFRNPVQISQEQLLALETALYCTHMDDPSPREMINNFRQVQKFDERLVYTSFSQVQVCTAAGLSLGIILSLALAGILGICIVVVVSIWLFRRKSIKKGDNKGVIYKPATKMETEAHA
POLL: DNA polymerase lambda (POLL, Homo sapiens, UniProt Q9UGP5)
UniProt Q9UGP5, sequence (whole entry, looked up): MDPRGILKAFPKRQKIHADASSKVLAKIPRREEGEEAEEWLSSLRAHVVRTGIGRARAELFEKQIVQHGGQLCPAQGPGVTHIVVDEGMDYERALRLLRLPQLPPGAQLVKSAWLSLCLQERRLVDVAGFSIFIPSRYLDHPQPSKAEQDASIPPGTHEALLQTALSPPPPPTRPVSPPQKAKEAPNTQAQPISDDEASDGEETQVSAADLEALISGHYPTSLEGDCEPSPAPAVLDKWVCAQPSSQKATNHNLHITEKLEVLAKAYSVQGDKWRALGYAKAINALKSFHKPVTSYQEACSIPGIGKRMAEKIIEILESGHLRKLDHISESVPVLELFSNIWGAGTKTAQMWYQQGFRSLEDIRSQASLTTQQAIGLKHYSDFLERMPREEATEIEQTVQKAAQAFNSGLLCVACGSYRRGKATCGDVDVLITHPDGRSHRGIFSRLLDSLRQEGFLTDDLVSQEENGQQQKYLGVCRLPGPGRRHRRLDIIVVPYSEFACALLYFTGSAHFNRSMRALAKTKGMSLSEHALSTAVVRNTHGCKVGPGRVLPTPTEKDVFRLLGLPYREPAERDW
UniProt P11086, sequence (whole entry, looked up): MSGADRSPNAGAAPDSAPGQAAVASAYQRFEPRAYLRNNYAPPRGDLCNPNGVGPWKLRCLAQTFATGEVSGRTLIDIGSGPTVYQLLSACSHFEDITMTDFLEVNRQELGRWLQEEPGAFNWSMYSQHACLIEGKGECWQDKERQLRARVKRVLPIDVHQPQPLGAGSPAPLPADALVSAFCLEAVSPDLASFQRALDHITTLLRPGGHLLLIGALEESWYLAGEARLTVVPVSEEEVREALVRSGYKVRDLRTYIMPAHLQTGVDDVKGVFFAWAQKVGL
UniProt P45983, sequence (whole entry, looked up): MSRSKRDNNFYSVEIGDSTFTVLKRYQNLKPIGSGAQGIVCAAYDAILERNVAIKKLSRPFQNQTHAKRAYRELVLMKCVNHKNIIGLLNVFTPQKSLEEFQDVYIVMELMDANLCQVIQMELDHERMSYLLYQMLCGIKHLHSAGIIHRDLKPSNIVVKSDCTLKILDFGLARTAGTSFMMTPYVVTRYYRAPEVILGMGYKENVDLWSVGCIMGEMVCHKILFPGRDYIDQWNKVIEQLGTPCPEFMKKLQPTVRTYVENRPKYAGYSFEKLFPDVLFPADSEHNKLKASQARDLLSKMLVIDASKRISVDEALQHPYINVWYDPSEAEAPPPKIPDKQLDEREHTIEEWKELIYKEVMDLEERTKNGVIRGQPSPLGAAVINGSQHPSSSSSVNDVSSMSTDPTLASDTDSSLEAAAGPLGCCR
UniProt P04062, sequence (whole entry, looked up): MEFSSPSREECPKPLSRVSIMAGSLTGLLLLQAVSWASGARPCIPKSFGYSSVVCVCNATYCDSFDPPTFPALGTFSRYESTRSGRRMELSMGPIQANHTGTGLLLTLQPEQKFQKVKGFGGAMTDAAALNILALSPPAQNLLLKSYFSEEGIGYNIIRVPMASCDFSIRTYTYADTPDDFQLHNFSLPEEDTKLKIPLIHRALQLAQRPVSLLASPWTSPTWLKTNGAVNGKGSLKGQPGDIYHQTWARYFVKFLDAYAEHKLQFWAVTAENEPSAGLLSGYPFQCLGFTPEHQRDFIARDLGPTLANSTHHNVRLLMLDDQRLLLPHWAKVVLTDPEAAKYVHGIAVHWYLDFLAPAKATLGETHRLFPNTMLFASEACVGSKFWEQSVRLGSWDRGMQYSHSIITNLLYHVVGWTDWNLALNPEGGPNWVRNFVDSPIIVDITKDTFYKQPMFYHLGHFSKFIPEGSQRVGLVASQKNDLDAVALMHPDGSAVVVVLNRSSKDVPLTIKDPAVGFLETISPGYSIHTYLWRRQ
UniProt P28223, sequence (whole entry, looked up): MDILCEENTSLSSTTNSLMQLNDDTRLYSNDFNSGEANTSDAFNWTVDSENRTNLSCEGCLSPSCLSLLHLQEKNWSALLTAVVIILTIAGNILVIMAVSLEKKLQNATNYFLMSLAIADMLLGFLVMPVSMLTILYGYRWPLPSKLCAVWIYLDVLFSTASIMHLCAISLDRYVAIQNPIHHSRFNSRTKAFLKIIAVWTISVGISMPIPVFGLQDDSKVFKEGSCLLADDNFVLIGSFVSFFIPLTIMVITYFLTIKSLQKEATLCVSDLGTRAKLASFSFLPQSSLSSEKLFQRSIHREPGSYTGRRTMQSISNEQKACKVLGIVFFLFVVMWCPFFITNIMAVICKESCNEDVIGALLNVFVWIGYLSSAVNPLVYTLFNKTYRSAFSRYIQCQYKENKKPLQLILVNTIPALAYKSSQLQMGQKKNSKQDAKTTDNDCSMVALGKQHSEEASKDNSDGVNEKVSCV

The Ki of Nc1ncnc2c1ncn2C1OC(CN(CCC(N)C(=O)O)CCC2CNCc3c2ccc(Cl)c3Cl)C(O)C1O (mixture of isomers) is reported as 34100 ± 7100 nM (Phenylethanolamine N-methyltransferase (PNMT, Homo sapiens, UniProt P11086); enzyme activity, inhibitor, coupled-enzyme).
O=C(NO)c1cc(F)cc(OS(=O)(=O)Oc2ccc(Br)cc2)c1 gave a Ki of 100 nM (HDAC6; enzyme activity, inhibitor, fluorescence).
CC[C@@H]1NC(=O)[C@H](CCCNC(=N)N)NC(=O)[C@H](NC(=O)C(C)C)CCCCNC(=O)c2cc(F)c(c(F)c2)N=Nc2c(F)cc(cc2F)C(=O)NCCNC1=O has a Ki of 3690 nM (WDR5; binding, inhibitor, competitive fluorescence polarization; trans isomer, 405 nm photostationary state).
CC(C)(C)c1ccccc1OS(=O)(=O)Oc1cccc(C(=O)NO)c1 has a Ki of 409 nM (HDAC6; enzyme activity, inhibitor, fluorescence).
For O=C1CCCCO1, the Ki was 8200 nM (CA12; enzyme activity, inhibitor, stopped-flow).
The Ki of CC(C)(C)c1cccc(OS(=O)(=O)Oc2cc(F)cc(C(=O)NO)c2)c1 is reported as 309 nM (HDAC6; enzyme activity, inhibitor, fluorescence).
CCCCC1CCC(=O)O1 (stereo not drawn) gave a Ki of 7600 nM (CA12; enzyme activity, inhibitor, stopped-flow).
With O=C(OCCCCOP(=O)(O)OP(=O)(O)OP(=O)(O)O)c1ccccc1 the Ki was 2200 nM (POLL; DNA polymerase activity, inhibitor; added: 1 mM Mg2+, poly(dA)/oligo(dT)).
With CC1(C)OCCc2cc(C(=O)N3CCC(c4nc(-c5ccccc5)n[nH]4)CC3)ccc21 the Ki was 3560 ± 820 nM (FSP1; NADH oxidase activity, inhibitor; pH 7.2, added: NADH varied, no coenzyme Q1).
COC(=O)[C@]1(C)C=C(C(=O)Nc2cccc(C(=O)Nc3ccc(Nc4nccc(-c5cccnc5)n4)c(C)c3)c2)C(=O)CC1 gave a Ki of 2.1 nM (Mitogen-activated protein kinase 8 (MAPK8, Homo sapiens, UniProt P45983); SPR two-step binding model; wild-type protein surface).
The Ki of CCc1c(Cl)cccc1N1CCN(C[C@H](F)CCNC(=O)c2cc3ccccc3[nH]2)CC1 is reported as 709 nM (5-hydroxytryptamine receptor 2A (HTR2A, Homo sapiens, UniProt P28223); ligand displacement, radioligand; cell membranes).
The Ki of O=C(NCCOP(=O)(O)OP(=O)(O)OP(=O)(O)O)OCC1c2ccccc2-c2ccccc21 is reported as 5600 nM (POLL; DNA polymerase activity, inhibitor; added: 1 mM Mg2+, poly(dA)/oligo(dT)).
The Ki of Cc1c(Cl)c(=O)oc2cc(OCCCCCCSC#N)ccc12 is reported as 45.9 nM (CA12; enzyme activity, inhibitor, stopped-flow).
Cc1cc(=O)oc2c(F)c(O[C@@H]3C=C(CO)[C@@H](O)[C@H](O)[C@H]3O)c(F)cc12 has a Ki of 17000 ± 7000 nM (Lysosomal acid glucosylceramidase (GBA1, Homo sapiens, UniProt P04062); mixed-type inhibitor; added: resorufin β-glucoside).
CC[C@@H]1NC(=O)[C@H](CCCNC(=N)N)NC(=O)[C@H](NC(=O)C(C)C)CCNC(=O)c2cc(F)c(c(F)c2)N=Nc2c(F)cc(cc2F)C(=O)NCCNC1=O gave a Ki of 688 nM (WDR5; binding, inhibitor, competitive fluorescence polarization; trans isomer, 405 nm photostationary state).

Excerpt of the above:
With CC1(C)OCCc2cc(C(=O)N3CCC(c4nc(-c5ccccc5)n[nH]4)CC3)ccc21 the Ki was 3560 ± 820 nM (FSP1; NADH oxidase activity, inhibitor; pH 7.2, added: NADH varied, no coenzyme Q1).
